Published values from different studies.
Numbered parts are unrelated; each lists some results of a single study. Several values in a cell are separate wells, animals, samples, runs or records.

Block 1 — technique: CellTiter-Glo; tested at: 1 µM; baseline: DMSO
Cell line: normal-adjacent epithelium patient-derived organoids sample G
Structure (SMILES)	viability
CCC(=N\O)/C(C)=C/c1ccc(F)cc1	101% and 108%
Cc1cc2c(-c3ccco3)cnc(N[C@@H]3CCN(C)C[C@H]3C(=O)NC3CCCCC3)c2[nH]c1=O	70.4%
CC(=O)NCC(=O)N1[C@@H]2CC[C@H]1c1ccc(Nc3ncc(C(F)(F)F)c(NC4CCC4)n3)cc12	10.1% and 13.1%
Cc1ncc(-c2cc(Cl)ccc2F)cc1-n1c(=O)n(CC(N)=O)c2ccccc21	105% and 108%
COCc1nc2cnc3cc(-c4c(C)noc4C)c(OC[C@H]4CCNC4)cc3c2n1[C@H](C)c1ccccc1	68.6%
COc1ccc2c(O[C@@H]3C[C@H]4C(=O)N[C@]5(C(=O)O)CC5/C=C\CCCCC[C@H](NC(=O)OC5CCCC5)C(=O)N4C3)cc(-c3csc(NC(=O)C(C)C)n3)nc2c1C (stereo partly shown)	113% and 107%

Block 2 — organism: Sarcocystis neurona; read-out: parasite activity; tested at: 10 µM; time: 96 h
Compound	activity class
O=C1CCC(N2C(=O)c3ccccc3C2=O)C(=O)N1 (stereo not shown)	inactive
COc1ccccc1OCC(O)COC(N)=O (stereo not shown)	inactive
Cc1onc(-c2c(Cl)cccc2Cl)c1C(=O)N[C@@H]1C(=O)N2[C@@H]1SC(C)(C)[C@@H]2C(=O)O	inactive
C[C@@H]1CN(CCCn2c3ccccc3c3ccccc32)C[C@H](C)N1	inactive

Block 3 — read-out: enzyme activity; mode: inhibitor; tested at: 0.5 µM; baseline: control
Target: Serine/threonine-protein kinase 3 (STK3, Homo sapiens, UniProt Q13188)
Target sequence (Q13188 1-491): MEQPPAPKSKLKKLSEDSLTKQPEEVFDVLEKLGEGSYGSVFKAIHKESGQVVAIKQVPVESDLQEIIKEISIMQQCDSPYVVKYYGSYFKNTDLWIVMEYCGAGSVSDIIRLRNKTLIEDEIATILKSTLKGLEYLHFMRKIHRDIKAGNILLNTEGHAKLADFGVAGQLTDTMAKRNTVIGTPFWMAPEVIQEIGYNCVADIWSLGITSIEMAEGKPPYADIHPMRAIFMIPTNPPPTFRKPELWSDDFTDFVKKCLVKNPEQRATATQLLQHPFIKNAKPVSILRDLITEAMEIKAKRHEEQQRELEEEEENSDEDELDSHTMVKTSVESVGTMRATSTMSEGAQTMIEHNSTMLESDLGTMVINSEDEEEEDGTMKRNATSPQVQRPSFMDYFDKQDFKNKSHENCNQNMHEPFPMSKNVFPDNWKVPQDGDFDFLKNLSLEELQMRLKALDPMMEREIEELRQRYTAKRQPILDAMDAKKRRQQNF
Compound	remaining activity
O=C(c1cc2cc(O)ccc2[nH]1)c1cc2cc(O)ccc2[nH]1	41.4%
CN1CCN(c2ccc3nc(-c4c(N)c5c(F)cccc5[nH]c4=O)[nH]c3c2)CC1	34.4%
O=C1Nc2ccccc2/C1=C\c1c(Cl)[nH]c2ccccc12	89.1%
O=C1Cc2c([nH]c3ccc(Br)cc23)-c2ccccc2N1	83.2%
CCCCc1c(-c2ccc(OC)cc2)[nH]c2nccnc12	87%
COc1ccc(COc2ccc(Cc3cnc(N)nc3N)cc2OC)cc1	98.4%
O=C1Nc2ccc(Br)cc2/C1=C/c1cc2c([nH]1)CCCC2	60.7%
COc1cccc(-c2cc(=O)c3ccccc3o2)c1N	97.1%

Mixed results
Compound	system	setting	measurement	result
CC(C)n1cnc(-c2ccc(F)cc2)c1-c1ncc(C(=O)Nc2ccc(N3CCN(C)CC3)cc2)[nH]1	human, idiopathic pulmonary fibrosis	30 mg once daily, trial, treatment-emergent	patients with Pneumonia	0%
